Published values pooled from the literature.
Each line is one published result; not all experiments were run side by side. Values joined by “and” are separate records of one study, mostly repeats; a detail may differ.
Target: Cholecystokinin receptor type A (CCKAR, Homo sapiens, UniProt P32238)

C/C(=N\OCCCN1CCCCC1)c1ccc(C(F)(F)F)cc1
activation (agonist, IP-One; 10 µM): 2.11%

CCc1nnc(-c2c(OC)cc(-c3cnc4cc(-c5cnn(C)c5)ccn34)cc2OC)o1
specific binding (agonist, radioligand binding; 10 µM; reference: control): 87.3%

CS(C)(=O)=Nc1ccc(-c2ccc(-c3nc4cc(O[C@@H]5CO[C@H]6[C@@H]5OC[C@H]6O)[nH]c4cc3F)cc2)cc1
inhibition (calcium signal, antagonist; 10 µM): -17%

Cc1cc(-c2ccc3ccccc3c2)nnc1NCCN1CCN(C)CC1
antagonist activity (antagonist; concentration not given): negative

CCOC(=O)[C@](CC)(CCCSCCOCCOCCNC(=O)c1ccc(-c2c3ccc(=N)c(S(=O)(=O)O)c-3oc3c(S(=O)(=O)O)c(N)ccc23)c(C(=O)O)c1)NC(=O)c1ccc(C2CC2)c(Cc2ccc(F)cc2)n1
inhibition (ligand displacement, radioligand; 10 µM): 23%

Cc1ccc2c(n1)c(-c1cccc(S(C)(=O)=O)c1)c(C)n2C/C(F)=C/CN
inhibition (ligand displacement, radioligand; 10 µM): 11%

Cc1cc(Nc2nc(C[C@@]3(C(=O)O)CCN(Cc4cccc(Cl)c4F)[C@H](C)C3)cc(C)c2F)[nH]n1
inhibition (inhibitor; 10 µM): -19%

CCN(CC)CCOc1ccc(-c2nnn(Cc3ccc(OC)cc3)c2N)cc1
inhibition (radioligand binding; 10 µM, human, added: radioligand 10000 nM): -1.51%

Cc1sc2c(c1C)C(c1ccc(Cl)cc1)=NC(CC(=O)OC(C)(C)C)c1nnc(C)n1-2 (centres unmarked)
remaining binding (ligand displacement, radioligand; 1 µM): 91.1%

O=C(O)c1ccc(-c2nc(-c3ccccc3Cl)c3sccn23)cc1
specific binding (radioligand binding, safety screen panel; 10 µM; reference: control): 51.7% and 55.6%

COc1ccc(F)cc1S(=O)(=O)Nc1cnc2c(c1)C(=O)NCCO2
inhibition (ligand displacement, radioligand; 10 µM): 8%

For quick reference, copied from above:
C/C(=N\OCCCN1CCCCC1)c1ccc(C(F)(F)F)cc1
activation (agonist, IP-One; 10 µM): 2.11%

CCOC(=O)[C@](CC)(CCCSCCOCCOCCNC(=O)c1ccc(-c2c3ccc(=N)c(S(=O)(=O)O)c-3oc3c(S(=O)(=O)O)c(N)ccc23)c(C(=O)O)c1)NC(=O)c1ccc(C2CC2)c(Cc2ccc(F)cc2)n1
inhibition (ligand displacement, radioligand; 10 µM): 23%
